Measurements of several laboratories.
Protocols differ between the studies behind these lines. “And” joins repeats or separate records; there may be more than shown. ± marks the error that the study gave.
lasR: Transcriptional activator protein LasR (lasR, Pseudomonas aeruginosa, UniProt P25084)
HTR2B: 5-hydroxytryptamine receptor 2B (HTR2B, Homo sapiens, UniProt P41595)

CC(C)C[C@H](NC(=O)[C@@H]1O[C@H]1C(=O)O)C(=O)NCCCCNC(=N)N — inhibition (Ribosomal processing cysteine protease Prp (prp, Staphylococcus aureus, UniProt Q2FXS9, N63Q); enzyme activity, inhibitor; 10 µM, prp 21.4 nM, with: FITC peptide substrate 0.5 µM): 12.5 ± 11.1%
CCCCCCCCCCCCn1nnc(CC(=O)O)n1 — inhibition (lasR; reporter gene, antagonist; Escherichia coli JLD271; 10 µM, pSC11 and pJN105L plasmids, with: OdDHL 2 nM): -1%
N#Cc1ccc(N2N=C3c4ccc(C(=O)O)cc4CCC3C2C2CCCC2)cc1Cl (stereo not drawn) — inhibition (Histone-lysine N-methyltransferase 2B, complex (KMT2B, Homo sapiens, UniProt Q9UMN6); enzyme activity; 10 µM): 8%
CS(C)(=O)=Nc1ccc(-c2ccc(-c3nc4cc(O[C@@H]5CO[C@H]6[C@@H]5OC[C@H]6O)[nH]c4cc3F)cc2)cc1 — inhibition (RPS6KA2 (Homo sapiens, UniProt Q15349); enzyme activity, inhibitor; 10 µM): -3%
CN(C)[C@H]1C[C@@]23CC[C@@]4(O2)C(=CC[C@]2(C)[C@@H](c5ccc6ccncc6c5)CC[C@H]24)C=C3[C@@H](O)[C@@H]1O — inhibition (EPHB2 (Homo sapiens, UniProt P29323); ATP probe labelling, inhibitor, KiNativ profiling; 0.1 µM): -2.6%
O=C(CC(=O)N[C@H]1CCOC1=O)Cc1ccccc1 — inhibition (lasR; reporter gene, antagonist; Pseudomonas aeruginosa PAO-JP2; 100 µM, plasI-LVAgfp reporter, with: OdDHL 150 nM): 39%
CC(C)CC1NCCc2cc(O)c(O)cc21 (stereo not drawn) — inhibition (tyrosinase; enzyme activity, inhibitor; 100 µM, with: levodopa): 15.4 ± 1.58%
C=CC(=O)Nc1cc(-c2nn(C3CCC(N4CCN(C(C)=O)CC4)CC3)c3ncnc(N)c23)ccc1Oc1ccccc1 (stereo not drawn) — inhibition (MAPK7 (Homo sapiens, UniProt Q13164); inhibitor, KiNativ profiling; biochemical; 2 µM): 7.4%
CN(/N=C/c1ccccc1C(=O)O)c1nc(-c2ccccc2Cl)cs1 — inhibition (NPM1-ALK; enzyme activity; 1 µM): 23.5%
CC(C)[C@H]1NC(=O)C[C@H]2/C=C/CCSSC[C@@H](NC1=O)C(=O)N[C@H](Cc1cccc3ccccc13)C(=O)NCC(=O)O2 — inhibition (STK4 (Homo sapiens, UniProt Q13043); enzyme activity, inhibitor; 10 µM): -7.7%
Cc1cc(Nc2nc(C[C@@]3(C(=O)O)CCN(Cc4cccc(Cl)c4F)[C@H](C)C3)cc(C)c2F)[nH]n1 — inhibition (HTR2B; inhibitor; 10 µM): -9.41%
N[C@H](C(=O)N1CCCC1)C1CCN(c2nccc3c(-c4ncc(Cl)cc4Cl)cccc23)CC1 — inhibition (MYLK2 (Homo sapiens, UniProt Q9H1R3); kinase activity, inhibitor; 10 µM, with: ATP 1 mM): 2.7%
O=C(CN1CN(c2ccccc2)C2(CCN(C(=O)c3cnc4[nH]ncc4c3)CC2)C1=O)NCC(F)(F)F — inhibition (MAP2K7 (Homo sapiens, UniProt O14733); inhibitor; concentration not given): < 50%
CC(=O)NC[C@@H]1[C@@H](O)C[C@H]2[C@H](O)C[C@@H](CO)N12 — inhibition (β-N-acetylglucosaminidase; enzyme activity, inhibitor, colorimetric; Canavalia ensiformis; 4.28 nM, with: p-nitrophenyl GlcNAc substrate): 26.8% and 24%
COc1cc2c(cc1S(=O)(=O)F)C(=O)NCCC2 — inhibition (Uncharacterized hydrolase SAUSA300_2518 (Staphylococcus aureus, UniProt Q2FDS6); enzyme activity, inhibitor, fluorogenic substrate; 50 µM, 1 h preincubation): 8.6%
C[C@H](NCc1ccc(-c2ccc(C(F)(F)F)cc2)cc1)C(N)=O — inhibition (CDK3 (Homo sapiens, UniProt Q00526); cell-free assay, competition with immobilised ligand; 1 µM): 3%
CCCCCCCCCC(=O)CC(=O)Nc1ccccc1O — inhibition (lasR; reporter gene, antagonist; Escherichia coli JLD271; 10 µM, pSC11 and pJN105L plasmids, with: OdDHL 2 nM): -66%
CN[C@@H]1[C@H](O)[C@H](NC)[C@H]2O[C@]3(O)[C@H](O[C@@H]2[C@H]1O)O[C@H](C)C[C@H]3NC(=O)Cc1ccc(Cl)cn1 — inhibition (HTR2B; ligand displacement, radioligand; 10 µM): 11%

Some of these lines once more:
CC(C)[C@H]1NC(=O)C[C@H]2/C=C/CCSSC[C@@H](NC1=O)C(=O)N[C@H](Cc1cccc3ccccc13)C(=O)NCC(=O)O2 — inhibition (STK4 (Homo sapiens, UniProt Q13043); enzyme activity, inhibitor; 10 µM): -7.7%
Cc1cc(Nc2nc(C[C@@]3(C(=O)O)CCN(Cc4cccc(Cl)c4F)[C@H](C)C3)cc(C)c2F)[nH]n1 — inhibition (HTR2B; inhibitor; 10 µM): -9.41%
